Measured values collected from several papers.
Each line is one published result; not all experiments were run side by side. Values joined by “and” are separate records of one study, mostly repeats; a detail may differ. Numbers after ± are the reported error.

Structure (SMILES) = C#Cc1c(F)ccc2cc(O)cc(-c3ncc4c(N5CC6CCC(C5)N6C(=O)OC(C)OC(=O)CCCCCCC)nc(OC[C@@]56CCCN5C[C@H](F)C6)nc4c3F)c12 (stereo partly shown); test = chemical stability; test system = simulated intestinal fluid; conditions = 1 µM, 30 min; endpoint = compound remaining; result = 83.3%
Structure (SMILES) = CC(C)[C@@H]1NC(=O)CNC(=O)[C@H](CC(N)=O)NC(=O)[C@H](CCCNC(=N)N)NC(=O)[C@H](Cc2ccc(O)cc2)NC(=O)[C@H](C(C)C)NC(=O)[C@@H](NC(=O)[C@@H](NC(=O)[C@H](CC(N)=O)NC(=O)[C@H](Cc2c[nH]c3ccccc23)NC(=O)[C@H](C)NC(=O)[C@H](Cc2ccccc2)NC(=O)CNC(=O)[C@H](CCCCN)NC(=O)[C@H](Cc2ccccc2)NC(=O)[C@H](Cc2ccccc2)NC(=O)[C@H](CCCCN)NC(=O)OCC2c3ccccc3-c3ccccc32)C(C)C)CSSC[C@@H](C(=O)N[C@@H](Cc2c[nH]cn2)C(=O)N[C@@H](CCCNC(=N)N)C(=O)N[C@@H](CCCNC(=N)N)C(=O)N[C@@H](C)C(=O)N[C@@H](CC(N)=O)C(N)=O)NC(=O)[C@H](C(C)C)NC(=O)[C@H](CCCNC(=N)N)NC1=O; test system = ICR mice, serum; conditions = intraperitoneal, 10 mg/kg, day 5; endpoint = phosphorus; result = 3.37 ± 0.18 mmol/L
Structure (SMILES) = CN1Cc2cc(Cl)ccc2-n2c(nnc2C2CCN(c3cccc([18F])n3)CC2)C1; test = PET two-tissue compartment model; test system = rhesus monkey, amygdala; conditions = intravenous, dose not given, 100 min scan, baseline scan; endpoint = total volume of distribution; result = 1.26 ± 0.42 mL/cm3
Structure (SMILES) = CC(C)=CCC/C(C)=C/CCn1cc(CC(P(=O)(O)O)P(=O)(O)O)nn1; test = equilibrium dialysis; test system = mouse plasma; conditions = 10 µg/mL, 4 h; endpoint = fraction unbound; result = 0.038
Structure (SMILES) = CSCC[C@H](N)C(=O)N[C@@H](C)C(=O)N[C@@H](Cc1c[nH]c2ccccc12)C(=O)N[C@@H](Cc1c[nH]cn1)C(=O)N[C@@H](CC(=O)O)C(=O)N[C@@H](CC(=O)O)C(=O)N[C@@H](CCC(=O)O)C(=O)N[C@@H](CCC(=O)O)C(=O)N[C@@H](Cc1ccccc1)C(=O)N[C@@H](C)C(=O)N[C@@H](CCCNC(=N)N)C(=O)N[C@@H](CCCNC(=N)N)C(=O)N[C@@H](CCCNC(=N)N)C(=O)N[C@@H](CCCNC(=N)N)C(=O)NCCCCCC(=O)NCCCCC(NC(=O)CCCCCNC(=O)[C@H](CCCNC(=N)N)NC(=O)[C@H](CCCNC(=N)N)NC(=O)[C@H](CCCNC(=N)N)NC(=O)[C@H](CCCNC(=N)N)NC(=O)[C@H](C)NC(=O)[C@H](Cc1ccccc1)NC(=O)[C@H](CCC(=O)O)NC(=O)[C@H](CCC(=O)O)NC(=O)[C@H](CC(=O)O)NC(=O)[C@H](CC(=O)O)NC(=O)[C@H](Cc1c[nH]cn1)NC(=O)[C@H](Cc1c[nH]c2ccccc12)NC(=O)[C@H](C)NC(=O)[C@@H](N)CCSC)C(=O)NCCCCC(NC(=O)C(CCCCNC(=O)CCCCCNC(=O)[C@H](CCCNC(=N)N)NC(=O)[C@H](CCCNC(=N)N)NC(=O)[C@H](CCCNC(=N)N)NC(=O)[C@H](CCCNC(=N)N)NC(=O)[C@H](C)NC(=O)[C@H](Cc1ccccc1)NC(=O)[C@H](CCC(=O)O)NC(=O)[C@H](CCC(=O)O)NC(=O)[C@H](CC(=O)O)NC(=O)[C@H](CC(=O)O)NC(=O)[C@H](Cc1c[nH]cn1)NC(=O)[C@H](Cc1c[nH]c2ccccc12)NC(=O)[C@H](C)NC(=O)[C@@H](N)CCSC)NC(=O)CCCCCNC(=O)[C@H](CCCNC(=N)N)NC(=O)[C@H](CCCNC(=N)N)NC(=O)[C@H](CCCNC(=N)N)NC(=O)[C@H](CCCNC(=N)N)NC(=O)[C@H](C)NC(=O)[C@H](Cc1ccccc1)NC(=O)[C@H](CCC(=O)O)NC(=O)[C@H](CCC(=O)O)NC(=O)[C@H](CC(=O)O)NC(=O)[C@H](CC(=O)O)NC(=O)[C@H](Cc1c[nH]cn1)NC(=O)[C@H](Cc1c[nH]c2ccccc12)NC(=O)[C@H](C)NC(=O)[C@@H](N)CCSC)C(N)=O (stereo partly shown); test system = C57BL/6 mouse female, pancreas; conditions = dose not given, 6 h; how to read = reference: total; endpoint = tissue distribution; result = 0.85% and 1.33% and 0.15%
Structure (SMILES) = CCCCCCCCCCCCCCCC(=O)N[C@@H](CCC(=O)NCCOCCOCCC(=O)NCCOCCOCCC(=O)NCCCC[C@H](NC(=O)[C@H](CC(=O)O)NC(=O)[C@H](CC(C)C)NC(=O)[C@H](Cc1ccc(O)cc1)NC(=O)[C@H](CCCCN)NC(=O)[C@H](CO)NC(=O)[C@H](Cc1ccc(O)cc1)NC(=O)[C@H](CC(=O)O)NC(=O)[C@H](CO)NC(=O)[C@@H](NC(=O)[C@H](Cc1ccccc1)NC(=O)[C@@H](NC(=O)CNC(=O)[C@H](CCC(N)=O)NC(=O)[C@@H](CO)NC(=O)[C@@H](N)Cc1c[nH]cn1)[C@@H](C)O)[C@@H](C)O)C(=O)N[C@@H](CCCNC(=N)N)C(=O)N[C@@H](CCCNC(=N)N)C(=O)N[C@@H](C)C(=O)N[C@@H](CCC(N)=O)C(=O)N[C@@H](CC(=O)O)C(=O)N[C@@H](Cc1ccccc1)C(=O)N[C@H](C(=O)N[C@@H](CCC(N)=O)C(=O)N[C@@H](Cc1c[nH]c2ccccc12)C(=O)N[C@@H](CC(C)C)C(=O)N[C@@H](CC(C)C)C(=O)N[C@@H](CC(N)=O)C(=O)N[C@H](C(=O)NCC(=O)NCC(=O)N1CCC[C@H]1C(=O)N[C@@H](CO)C(=O)N[C@@H](CO)C(=O)NCC(=O)N[C@@H](C)C(=O)N1CCC[C@H]1C(=O)N1CCC[C@H]1C(=O)N1CCC[C@H]1C(=O)N[C@@H](CO)C(N)=O)[C@@H](C)O)C(C)C)C(=O)O; test = measured: AST; test system = rhesus monkey, female; conditions = subcutaneous, 60 µg/kg once daily, 28 days; endpoint = serum enzyme activity; result = 46.6 ± 13.4 U/L
Structure (SMILES) = CSCC[C@@H]1NC(=O)[C@H](C(C)C)NC(=O)[C@H](CCCNC(=N)N)NC(=O)CNC(=O)[C@@H]2CCCN2C(=O)[C@@H](NC(=O)CNC(=O)[C@H](CO)NC(=O)CNC(=O)[C@H](CO)NC(=S)Nc2ccc(C[C@H]3CN(CC(=O)O)CCN(CC(=O)O)CCN3CC(=O)O)cc2)CSSC[C@@H](C(N)=O)NC(=O)[C@@H]2CCCN2C(=O)CNC(=O)[C@H](CCC(=O)O)NC(=O)[C@H](CC(=O)O)NC(=O)[C@H](CC(=O)O)NC(=O)CNC(=O)[C@H](CC(C)C)NC(=O)[C@H](Cc2c[nH]cn2)NC(=O)[C@H](CC(C)C)NC(=O)CNC(=O)[C@H](Cc2c[nH]cn2)NC1=O [copper-64 labelled]; test = dynamic PET; test system = CD rat, myocardial infarction model, fibrotic infarct myocardium; conditions = intravenous, 18.5 MBq, 5 to 60 min; endpoint = half-life; result = 0.382 ± 0.0917 h
Structure (SMILES) = CCc1nn(C)c2nc(-c3ccc(C(=O)O)cc3)nc(NCc3ccccc3)c12; test system = NSG mice; conditions = dose not given, day 4 of treatment; endpoint = body weight; result = 23.1 g and 22.8 g and 21.9 g
Structure (SMILES) = N=C(N)NCCC[C@@H](NC(=O)[C@H](N)Cc1c[nH]c2ccccc12)C(=O)N[C@H](CCCCN)C(=O)N[C@H](Cc1c[nH]c2ccccc12)C(=O)N[C@H](CCCNC(=N)N)C(=O)N[C@H](CCCCN)C(=O)N[C@H](Cc1c[nH]c2ccccc12)C(=O)N[C@H](CCCNC(=N)N)C(=O)N[C@H](CCCCN)C(=O)N[C@H](Cc1c[nH]c2ccccc12)C(=O)N[C@H](CCCNC(=N)N)C(=O)N[C@H](CCCCN)C(N)=O; test system = mouse, spleen; conditions = intravenous, 20 mg/kg single dose, 7 days; endpoint = organ index; result = 0.534
Structure (SMILES) = Cc1ccc(OCC(=O)N(Cc2cccs2)c2ccn[nH]2)cc1; test = in vivo micronucleus; test system = Crl:CD-1(ICR) mice, male, bone marrow polychromatic erythrocytes; conditions = oral, 2000 mg/kg/day, 3 days; endpoint = micronucleated PCEs; result = 0.04 ± 0.04%
Structure (SMILES) = C#Cc1c(F)ccc2cc(O)cc(-c3ncc4c(N5CC6CCC(C5)N6C(=O)OC(C)OC(=O)c5cccnc5)nc(OC[C@@]56CCCN5C[C@H](F)C6)nc4c3F)c12 (stereo partly shown); test = chemical stability; test system = simulated intestinal fluid; conditions = 1 µM, 30 min; endpoint = compound remaining; result = 71%
Structure (SMILES) = O=C1NC2(CC2)COc2ncc(F)cc2[C@H]2COCCN2c2ccn3ncc1c3n2; test system = Sprague-Dawley rat, male, serum; conditions = oral, 2.5 mg/kg/day, 4 weeks daily, end of treatment; endpoint = alkaline phosphatase activity; result = 145 ± 34.3 U/L
Structure (SMILES) = C=C/C=C/C[C@@H](C)[C@@H](O)[C@H]1C(=O)N[C@@H](CC)C(=O)N(C)CC(=O)N(C)[C@@H](CC(C)C)C(=O)N[C@@H](C(C)C)C(=O)N(C)[C@@H](CC(C)C)C(=O)N[C@@H](C)C(=O)N[C@H](C)C(=O)N(C)[C@@H](CC(C)C)C(=O)N(C)[C@@H](CC(C)C)C(=O)N(C)[C@@H](C(C)C)C(=O)N1C; test system = rat, Wistar Kyoto, male; conditions = intraperitoneal, 0.5 mg/kg/day, day 18; endpoint = food intake; result = 19.5 ± 1.6 g/24 h
Structure (SMILES) = CSCC[C@H](NC(=O)[C@@H](NC(=O)[C@H](CC(C)C)NC(=O)[C@@H](NC(=O)[C@H](Cc1c[nH]cn1)NC(=O)CCCCCNC(=O)[C@H](CCCNC(=N)N)NC(=O)[C@H](CCCNC(=N)N)NC(=O)[C@H](CCCNC(=N)N)NC(=O)[C@H](CCC(N)=O)NC(=O)[C@H](CCCNC(=N)N)NC(=O)[C@H](CCCNC(=N)N)NC(=O)[C@H](CCCCN)NC(=O)[C@H](CCCCN)NC(=O)[C@H](CCCNC(=N)N)NC(=O)CNC(=O)[C@@H](N)Cc1ccc(O)cc1)C(C)C)C(C)C)C(=O)N[C@@H](CS)C(=O)N[C@@H](C)C(=O)N[C@H](C(N)=O)[C@@H](C)O; test system = C57BL/6J mouse, blood; conditions = Alzet pump, 3 mg/kg, 8 weeks; endpoint = serum sodium; result = 149 mmol/L
Structure (SMILES) = CC1(C)C(=O)N(c2ccc(C#N)c(C(F)(F)F)c2)C(=S)N1c1ccc(C(=O)O)c(F)c1; test system = male human, plasma; conditions = oral, 80 mg, single dose, fasted; endpoint = Tmax; result = 96 h
Structure (SMILES) = C=Cc1c(C)c2cc3nc(c(CC(=O)O)c4[nH]c(cc5nc(cc1[nH]2)C(C)=C5CC)c(C)c4C(=O)O)[C@@H](CCC(=O)NCCCC[C@H](NC(C)=O)C(=O)N[C@@H](Cc1ccccc1)C(=O)N[C@@H](Cc1ccccc1)C(=O)N[C@H](C(=O)N[C@@H](CC(C)C)C(=O)N[C@@H](CCCCN)C(=O)N[C@@H](CO)C(=O)NCC(=O)N[C@@H](CCC(N)=O)C(=O)N[C@@H](Cc1ccc(O)cc1)C(=O)N[C@@H](C)C(=O)N[C@@H](CO)C(=O)N[C@@H](Cc1ccc(O)cc1)C(=O)N[C@@H](Cc1c[nH]cn1)C(=O)N[C@@H](CS)C(=O)N[C@@H](Cc1c[nH]c2ccccc12)C(=O)N[C@@H](CS)C(=O)N[C@@H](Cc1c[nH]c2ccccc12)C(=O)N[C@@H](CCCNC(=N)N)C(=O)N[C@@H](CC(=O)O)C(=O)N1CCC[C@H]1C(=O)NCC(=O)N[C@@H](CCCNC(=N)N)C(=O)N[C@@H](CO)C(=O)NCC(=O)NCC(=O)N[C@@H](CO)C(=O)N[C@@H](CCCCN)C(N)=O)C(C)C)[C@@H]3C; test system = mouse, blood; conditions = 6 h; endpoint = blood concentration; result = 91.8 µg/mL and 109 µg/mL

Repeated from above:
Structure (SMILES) = C=C/C=C/C[C@@H](C)[C@@H](O)[C@H]1C(=O)N[C@@H](CC)C(=O)N(C)CC(=O)N(C)[C@@H](CC(C)C)C(=O)N[C@@H](C(C)C)C(=O)N(C)[C@@H](CC(C)C)C(=O)N[C@@H](C)C(=O)N[C@H](C)C(=O)N(C)[C@@H](CC(C)C)C(=O)N(C)[C@@H](CC(C)C)C(=O)N(C)[C@@H](C(C)C)C(=O)N1C; test system = rat, Wistar Kyoto, male; conditions = intraperitoneal, 0.5 mg/kg/day, day 18; endpoint = food intake; result = 19.5 ± 1.6 g/24 h
Structure (SMILES) = CSCC[C@H](NC(=O)[C@@H](NC(=O)[C@H](CC(C)C)NC(=O)[C@@H](NC(=O)[C@H](Cc1c[nH]cn1)NC(=O)CCCCCNC(=O)[C@H](CCCNC(=N)N)NC(=O)[C@H](CCCNC(=N)N)NC(=O)[C@H](CCCNC(=N)N)NC(=O)[C@H](CCC(N)=O)NC(=O)[C@H](CCCNC(=N)N)NC(=O)[C@H](CCCNC(=N)N)NC(=O)[C@H](CCCCN)NC(=O)[C@H](CCCCN)NC(=O)[C@H](CCCNC(=N)N)NC(=O)CNC(=O)[C@@H](N)Cc1ccc(O)cc1)C(C)C)C(C)C)C(=O)N[C@@H](CS)C(=O)N[C@@H](C)C(=O)N[C@H](C(N)=O)[C@@H](C)O; test system = C57BL/6J mouse, blood; conditions = Alzet pump, 3 mg/kg, 8 weeks; endpoint = serum sodium; result = 149 mmol/L
Structure (SMILES) = CC1(C)C(=O)N(c2ccc(C#N)c(C(F)(F)F)c2)C(=S)N1c1ccc(C(=O)O)c(F)c1; test system = male human, plasma; conditions = oral, 80 mg, single dose, fasted; endpoint = Tmax; result = 96 h
